Measured values collected from several papers.
Parts stem from different laboratories: compare values within a part only.
Chain of UniProt P42336 (whole entry, unmodified, looked up): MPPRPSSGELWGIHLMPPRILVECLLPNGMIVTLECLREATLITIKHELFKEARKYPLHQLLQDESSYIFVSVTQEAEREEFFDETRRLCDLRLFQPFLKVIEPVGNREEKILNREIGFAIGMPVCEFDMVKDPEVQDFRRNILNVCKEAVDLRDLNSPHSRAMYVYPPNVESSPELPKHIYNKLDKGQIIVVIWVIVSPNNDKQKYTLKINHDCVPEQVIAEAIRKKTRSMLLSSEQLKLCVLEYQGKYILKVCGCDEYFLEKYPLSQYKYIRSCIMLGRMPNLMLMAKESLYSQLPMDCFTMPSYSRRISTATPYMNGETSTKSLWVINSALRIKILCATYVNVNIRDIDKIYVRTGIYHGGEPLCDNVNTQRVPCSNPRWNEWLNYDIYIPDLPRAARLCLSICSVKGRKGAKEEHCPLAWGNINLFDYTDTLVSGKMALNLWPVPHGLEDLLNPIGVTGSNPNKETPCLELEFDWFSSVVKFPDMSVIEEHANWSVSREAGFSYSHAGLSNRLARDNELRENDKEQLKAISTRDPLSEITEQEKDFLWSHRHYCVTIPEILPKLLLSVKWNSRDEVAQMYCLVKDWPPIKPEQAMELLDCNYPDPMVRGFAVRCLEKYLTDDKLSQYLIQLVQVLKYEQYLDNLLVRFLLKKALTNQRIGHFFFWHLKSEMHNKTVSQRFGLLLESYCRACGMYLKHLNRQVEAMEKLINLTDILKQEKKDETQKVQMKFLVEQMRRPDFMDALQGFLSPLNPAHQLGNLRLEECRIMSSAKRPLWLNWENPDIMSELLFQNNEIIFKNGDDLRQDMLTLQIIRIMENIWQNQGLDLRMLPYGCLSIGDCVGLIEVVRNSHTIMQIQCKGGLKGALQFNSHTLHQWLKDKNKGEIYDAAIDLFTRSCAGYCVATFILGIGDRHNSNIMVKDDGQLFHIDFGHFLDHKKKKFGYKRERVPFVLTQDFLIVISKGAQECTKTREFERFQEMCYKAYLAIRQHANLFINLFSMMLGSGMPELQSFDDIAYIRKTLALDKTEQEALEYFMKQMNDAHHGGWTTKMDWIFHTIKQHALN
Chain of UniProt P41240 (whole entry, looked up): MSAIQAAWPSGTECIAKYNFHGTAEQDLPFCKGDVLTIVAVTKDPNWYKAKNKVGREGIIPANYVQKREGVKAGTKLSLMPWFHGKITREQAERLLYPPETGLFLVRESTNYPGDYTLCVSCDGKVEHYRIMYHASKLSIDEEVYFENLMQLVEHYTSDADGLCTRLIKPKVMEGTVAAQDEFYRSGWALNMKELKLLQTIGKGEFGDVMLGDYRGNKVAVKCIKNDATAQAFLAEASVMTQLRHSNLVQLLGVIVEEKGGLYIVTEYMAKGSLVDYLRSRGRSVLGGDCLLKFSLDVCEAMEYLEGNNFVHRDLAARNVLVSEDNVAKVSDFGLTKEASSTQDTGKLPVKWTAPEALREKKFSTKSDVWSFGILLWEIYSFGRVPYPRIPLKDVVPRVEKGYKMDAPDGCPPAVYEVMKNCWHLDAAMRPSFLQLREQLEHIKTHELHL
Chain of UniProt Q9Y6E0 (whole entry, looked up): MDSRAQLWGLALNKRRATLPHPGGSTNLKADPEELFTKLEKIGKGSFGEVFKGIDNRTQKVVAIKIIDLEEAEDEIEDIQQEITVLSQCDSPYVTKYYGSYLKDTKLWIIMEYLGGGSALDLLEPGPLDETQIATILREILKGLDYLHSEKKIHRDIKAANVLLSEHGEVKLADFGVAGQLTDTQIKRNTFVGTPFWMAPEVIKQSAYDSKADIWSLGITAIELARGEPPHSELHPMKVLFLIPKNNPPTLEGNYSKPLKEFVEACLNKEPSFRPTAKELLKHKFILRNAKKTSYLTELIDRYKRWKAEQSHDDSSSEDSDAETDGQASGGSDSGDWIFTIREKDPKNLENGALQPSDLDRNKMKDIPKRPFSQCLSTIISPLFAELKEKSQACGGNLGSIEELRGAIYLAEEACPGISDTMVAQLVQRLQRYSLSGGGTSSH
Chain of UniProt Q9P1W9 (whole entry, looked up): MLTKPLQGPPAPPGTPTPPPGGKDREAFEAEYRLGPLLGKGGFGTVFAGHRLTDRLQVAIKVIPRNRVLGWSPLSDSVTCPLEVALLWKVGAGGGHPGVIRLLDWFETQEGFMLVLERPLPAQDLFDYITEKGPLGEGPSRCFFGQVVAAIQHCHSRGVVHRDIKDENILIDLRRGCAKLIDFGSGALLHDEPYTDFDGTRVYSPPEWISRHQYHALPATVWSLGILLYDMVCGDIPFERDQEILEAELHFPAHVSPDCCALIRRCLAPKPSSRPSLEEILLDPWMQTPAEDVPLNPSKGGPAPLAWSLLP
Chain of UniProt Q9UPE1 (whole entry, looked up): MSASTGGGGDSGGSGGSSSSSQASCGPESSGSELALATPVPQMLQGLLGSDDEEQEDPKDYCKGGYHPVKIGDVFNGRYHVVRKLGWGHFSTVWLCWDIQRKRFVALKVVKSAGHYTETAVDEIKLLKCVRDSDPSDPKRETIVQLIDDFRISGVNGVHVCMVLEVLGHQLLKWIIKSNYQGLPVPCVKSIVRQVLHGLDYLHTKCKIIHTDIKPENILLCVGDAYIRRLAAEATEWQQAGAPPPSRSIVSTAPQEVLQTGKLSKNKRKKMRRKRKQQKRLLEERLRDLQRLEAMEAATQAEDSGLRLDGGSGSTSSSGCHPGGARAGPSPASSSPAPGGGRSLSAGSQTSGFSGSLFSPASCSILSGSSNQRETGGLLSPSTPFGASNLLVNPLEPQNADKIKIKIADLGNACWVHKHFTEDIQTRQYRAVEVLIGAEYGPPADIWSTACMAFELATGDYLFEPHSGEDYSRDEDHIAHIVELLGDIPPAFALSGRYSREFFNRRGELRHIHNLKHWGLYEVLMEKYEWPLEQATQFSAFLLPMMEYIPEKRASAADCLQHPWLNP
Chain of UniProt O95835 (whole entry, looked up): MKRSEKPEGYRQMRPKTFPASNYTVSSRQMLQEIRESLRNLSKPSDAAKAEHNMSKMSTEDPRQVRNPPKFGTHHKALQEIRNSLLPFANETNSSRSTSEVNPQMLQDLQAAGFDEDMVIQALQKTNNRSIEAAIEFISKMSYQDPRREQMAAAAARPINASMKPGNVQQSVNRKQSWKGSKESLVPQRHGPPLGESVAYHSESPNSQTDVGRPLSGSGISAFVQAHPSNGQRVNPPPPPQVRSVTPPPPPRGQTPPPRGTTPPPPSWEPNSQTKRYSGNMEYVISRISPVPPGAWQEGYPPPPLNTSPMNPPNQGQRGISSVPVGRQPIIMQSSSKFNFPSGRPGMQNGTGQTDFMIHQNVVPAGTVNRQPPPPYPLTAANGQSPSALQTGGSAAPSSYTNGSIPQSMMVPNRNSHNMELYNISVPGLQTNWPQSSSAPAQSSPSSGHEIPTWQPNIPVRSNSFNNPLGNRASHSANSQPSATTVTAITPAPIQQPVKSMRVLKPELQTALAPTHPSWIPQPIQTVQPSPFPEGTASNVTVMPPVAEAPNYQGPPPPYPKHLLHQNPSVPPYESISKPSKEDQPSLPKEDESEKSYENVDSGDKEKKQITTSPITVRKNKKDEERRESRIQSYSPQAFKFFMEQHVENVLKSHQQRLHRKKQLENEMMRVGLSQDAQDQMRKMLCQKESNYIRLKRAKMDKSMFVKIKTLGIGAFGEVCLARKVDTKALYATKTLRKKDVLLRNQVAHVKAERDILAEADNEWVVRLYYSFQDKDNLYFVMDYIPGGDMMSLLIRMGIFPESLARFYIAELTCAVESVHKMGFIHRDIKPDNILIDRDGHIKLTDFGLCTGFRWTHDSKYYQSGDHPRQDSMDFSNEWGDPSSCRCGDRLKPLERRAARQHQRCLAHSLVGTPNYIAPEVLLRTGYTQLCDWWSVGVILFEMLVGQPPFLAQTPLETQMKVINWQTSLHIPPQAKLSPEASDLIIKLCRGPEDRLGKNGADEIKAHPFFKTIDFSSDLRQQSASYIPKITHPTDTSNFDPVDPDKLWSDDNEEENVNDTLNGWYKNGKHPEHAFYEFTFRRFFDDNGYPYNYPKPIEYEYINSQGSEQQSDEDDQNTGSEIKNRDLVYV
Chain of UniProt Q13882 (whole entry, looked up): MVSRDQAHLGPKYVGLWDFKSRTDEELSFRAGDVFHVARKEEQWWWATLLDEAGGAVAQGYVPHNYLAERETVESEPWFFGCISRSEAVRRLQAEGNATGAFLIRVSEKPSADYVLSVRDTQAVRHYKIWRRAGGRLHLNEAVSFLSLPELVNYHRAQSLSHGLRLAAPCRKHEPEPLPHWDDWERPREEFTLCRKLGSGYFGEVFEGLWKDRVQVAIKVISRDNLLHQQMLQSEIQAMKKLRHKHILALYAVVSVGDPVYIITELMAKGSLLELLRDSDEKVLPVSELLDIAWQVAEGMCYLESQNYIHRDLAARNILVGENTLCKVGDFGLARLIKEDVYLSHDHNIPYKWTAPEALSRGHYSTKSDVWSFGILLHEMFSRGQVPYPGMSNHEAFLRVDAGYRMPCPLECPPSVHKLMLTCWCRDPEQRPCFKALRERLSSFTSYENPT
Chain of UniProt Q9UQB9 (whole entry, looked up): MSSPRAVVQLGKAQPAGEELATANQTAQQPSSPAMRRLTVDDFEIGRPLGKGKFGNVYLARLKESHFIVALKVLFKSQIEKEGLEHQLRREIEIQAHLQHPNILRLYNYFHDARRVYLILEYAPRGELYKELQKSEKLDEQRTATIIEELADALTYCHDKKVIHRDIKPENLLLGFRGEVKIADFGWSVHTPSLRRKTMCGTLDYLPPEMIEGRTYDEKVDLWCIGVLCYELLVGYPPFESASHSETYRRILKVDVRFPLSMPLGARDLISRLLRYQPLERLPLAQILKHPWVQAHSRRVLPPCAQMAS

Study 1
Cell line: HH
Concentration: 2 µM
Time: 48 h
Baseline: untreated
Compound | viability [%]
O=C(NCc1cccc(O)c1)Nc1nc(-c2ccncc2)cs1 | 30.4
COc1cc2ncnc(Nc3cccc(Cl)c3)c2cc1OC | 91.3
O=C1NC(=O)/C(=C/c2ccc(-c3ccc(F)cc3O)o2)S1 | 93.9
N#C/C(=C\c1ccc(O)c(O)c1)C(=O)NCc1ccccc1 | 93.6
Cc1ccc(NC(=O)c2cccc(C(C)(C)C#N)c2)cc1Nc1ccc2ncn(C)c(=O)c2c1 | 99.2
O=C(NC(NC(=S)Nc1ccc(F)c([N+](=O)[O-])c1)C(Cl)(Cl)Cl)C(c1ccccc1)c1ccccc1 (stereo not drawn) | 81.1
C[C@@H]1CCN(C(=O)CC#N)C[C@@H]1N(C)c1ncnc2[nH]ccc12 | 75.2
COc1ccc(-c2ccc3ncc4c(c3c2)n(-c2ccc(N3CCNCC3)c(C(F)(F)F)c2)c(=O)n4C)cn1 | 6.44
Cc1cn(-c2cc(NC(=O)c3ccc(C)c(Nc4nccc(-c5cccnc5)n4)c3)cc(C(F)(F)F)c2)cn1 | 64.4
CN1CCC(CNc2ccc3ncc(-c4cccc(OC(F)(F)F)c4)n3n2)CC1 | 87.5
CN1CCCN(C(=O)c2cccc(-c3ccc(/C=C4/C(=O)Nc5ccc(Cl)cc54)o3)c2)CC1 | 77.6
C[C@]1(O)C[C@@H](c2nc(-c3ccc4ccc(-c5ccccc5)nc4c3)c3c(N)nccn32)C1 | 85.7

Study 2
SMILES: CC(C)n1cnc(-c2ccc(F)cc2)c1-c1ncc(C(=O)Nc2ccc(N3CCN(C)CC3)cc2)[nH]1
Method: phase 2a trial
Host: idiopathic pulmonary fibrosis patients
conditions | patients with AST increased
60 mg once daily, adverse event grade 1 | 1%
dose not given, grade 1, arms pooled | 2%
60 mg once daily, adverse event grade 4 | 0%
dose not given, grade 2, arms pooled | 1%
dose not given, grade 3, arms pooled | 1%
60 mg once daily, adverse event grade 5 | 0%

Study 3
Compound: Oc1cccc(-c2nc(N3CCOCC3)c3oc4ncccc4c3n2)c1
Observed: enzyme activity
Mode: inhibitor
Concentration: 0.5 µM
Baseline: control
target | remaining activity
Aurora kinase C (AURKC, Homo sapiens, UniProt Q9UQB9) | 98.1%
PIM2 (Homo sapiens, UniProt Q9P1W9) | 96.9%
GRK2 (Homo sapiens, UniProt P25098) | 107%
CSK (Homo sapiens, UniProt P41240) | 88.3%
PRKCE (Homo sapiens, UniProt Q02156) | 100%
SRPK3 (Homo sapiens, UniProt Q9UPE1) | 95%
PRKCG (Homo sapiens, UniProt P05129) | 102%
NUAK1 (Homo sapiens, UniProt O60285) | 86.6%
FGFR4 (Homo sapiens, UniProt P22455) | 102%

Study 4
SMILES: O=C(Nc1cccnn1)N1CC(C/C=C/c2cncc(Oc3ccc(C(F)(F)F)cn3)n2)C1
Observed: cell-free assay
Method: competition with immobilised ligand
Concentration: 1 µM
target | remaining binding [%]
PTK6 (Homo sapiens, UniProt Q13882) | 91
MAP3K7 (Homo sapiens, UniProt O43318) | 93
CHEK1 (Homo sapiens, UniProt O14757) | 100
SYK (Homo sapiens, UniProt P43405) | 100
DAPK2 (Homo sapiens, UniProt Q9UIK4) | 100
PIK3CA (Homo sapiens, UniProt P42336, H1047L) | 100
ALK (Homo sapiens, UniProt Q9UM73) | 97
LATS1 (Homo sapiens, UniProt O95835) | 91
FES (Homo sapiens, UniProt P07332) | 91
PI4KB (Homo sapiens, UniProt Q9UBF8) | 91
RIPK2 (Homo sapiens, UniProt O43353) | 93
MAPK4 (Homo sapiens, UniProt P31152) | 100
PNCK (Homo sapiens, UniProt Q6P2M8) | 63
MAPK6 (Homo sapiens, UniProt Q16659) | 100
STK35 (Homo sapiens, UniProt Q8TDR2) | 94
RET (Homo sapiens, UniProt P07949, V804M) | 100
MERTK (Homo sapiens, UniProt Q12866) | 100
STK24 (Homo sapiens, UniProt Q9Y6E0) | 98
